Published values from different studies.
Each numbered part is a random draw from the data of one study; scales do not carry over between parts. Changes are numbered by the printed parent chain.

Series 1
Target: CCNF, cyclin fold, Cln2 fusion (human)
Method: yeast growth competition, sequencing
Medium: yeast
Notes: strong parent motif
Reference: not given
Direction: higher = stronger binding
Parent: ORC1 docking peptide (human); PRARKRLELGNLG
Variant	normalised enrichment score
L12I	3.53
R4D	0.503
R4I	1.18
E8A	1.64
E8L	2.77
G10W	4.27
G10H	2.55
R2W	3.49
G13S	3.6
K5M	0.514
E8M	2.82
E8T	0.506
G13Y	2.57
L7I	0.875
K5I	1.36

Series 2
Target: Fragile X messenger ribonucleoprotein 1, C-terminal low-complexity region (Fmr1, Mus musculus, UniProt P35922)
Method: RNA Bind-n-Seq
Form: RNA
Medium: in vitro
Tested at: 200 nM
Notes: whole 134-nt RNA, ends assumed
With: 150 mM KCl
Reference: input library
Direction: higher = stronger binding
All sequences stand within: GGGAGUUCUACAGUCCGACGAUC … UGGAAUUCUCGGGUGUCAAGG
Strand	log2 enrichment
CGGCCCUGGUGGCAUGCGGGGAGGAAGAGGUGGCCUCAUGGAUCGUGGUGGUCCCGGUGGAAUGUUCAGAGGUGGCCGUGGUGGAGACAG	0.0399
UGUUGGGCUUCGAUCCCAGGUGGAUGAUGAUGCCUUCCUACAUGGACCCACGUAUCACGCCCACUCGGACCCCGGUGGACUUCUACCCCU	-0.0885
UAACUUUAGAGGAGGAUCGGAUGGAUAUGGCAGUGGACGUGGAUUUGGGGAUGGCUAUAAUGGGUAUGGAGGAGGACCUGGAGGUGGCAA	0.346
CACAGACAACACGCACCCACACAGACACAGAGGGAAGGGGUUGGGAUGGGGACAGGGUGCACAGCAGGGCGGGGAAAGACCCCAGCCCCU	1.26
GUCCUGUGCUACACAUCGUAUGUACCGAAUCGGGUUUUUGGGUUUUUGGGGUUUUUGGGAAAGUAUUAUGUUACGCCGUUCGGAUCUGCA	0.313
UCAAGUCCUGUGCUACACAUCGUAUGUACCGAAUCGGGUUGGGUUGGGGUUGGGGAAAGUAUUAUGUUACGCCGUUCGGAUCUGCACUUC	1.46
AGUCCUGUGCUACACAUCGUAUGUACCGAAUCGGGAAAAAGGGAAAGGGAAAAAGGGAAAGUAUUAUGUUACGCCGUUCGGAUCUGCACU	-0.285
UGACUUUAGGAGAUACCUUAACUCGACGUUCCAUUAGCCAGCAGAAGUCCGGAGUUUCCAUUACCAUUGAUGACCCAGUCCGAACUGCCC	-0.204
UCCUCAAGUCCUGUGCUACACAUCGUAUGUACCGAAUCGGAGGGAGGAGGGAAAGUAUUAUGUUACGCCGUUCGGAUCUGCACUUCCAGC	-0.166

Series 3
Target: Sal-like protein 4, full length isoform B (SALL4, Homo sapiens, UniProt Q9UJQ4-2, residues 1-616)
Method: universal PBM
Form: double-stranded DNA, one strand shown
Medium: in vitro
Tested at: not given
Notes: 8-mer, flanks averaged, mean of replicates
Direction: higher = stronger binding
Strand	E-score
GGGGTTGA	-0.134
CCCGCGCA	-0.259
GAATCTCA	-0.0901
CCATGTAC	0.0789
CCATCACC	-0.0813
GCCAGCGC	-0.292
AACCTAAG	-0.0284
ATTTTCCA	0.229
CATTAGGA	0.12
CCTGCGCG	-0.214
CTCAATGC	0.0151
TATCAAGA	0.182
AAGTATAG	0.146
ATGAGCGC	-0.0412
ATGCCAGC	-0.194
AGAACACG	-0.0488
ACACGATA	0.203
AAGCAGGC	-0.251
CCTCGAGA	-0.12
CGTGTGTA	0.165
CGCCGGAG	-0.239
GCAGCTGC	-0.113
ACCATGGG	-0.343
ACCCGCGA	-0.174
AATTTTGT	0.32

Series 4
Target: Runt-related transcription factor 1 (RUNX1, Homo sapiens, UniProt Q01196, residues 1-453, full length assumed)
Sequence of UniProt Q01196 (whole entry, looked up): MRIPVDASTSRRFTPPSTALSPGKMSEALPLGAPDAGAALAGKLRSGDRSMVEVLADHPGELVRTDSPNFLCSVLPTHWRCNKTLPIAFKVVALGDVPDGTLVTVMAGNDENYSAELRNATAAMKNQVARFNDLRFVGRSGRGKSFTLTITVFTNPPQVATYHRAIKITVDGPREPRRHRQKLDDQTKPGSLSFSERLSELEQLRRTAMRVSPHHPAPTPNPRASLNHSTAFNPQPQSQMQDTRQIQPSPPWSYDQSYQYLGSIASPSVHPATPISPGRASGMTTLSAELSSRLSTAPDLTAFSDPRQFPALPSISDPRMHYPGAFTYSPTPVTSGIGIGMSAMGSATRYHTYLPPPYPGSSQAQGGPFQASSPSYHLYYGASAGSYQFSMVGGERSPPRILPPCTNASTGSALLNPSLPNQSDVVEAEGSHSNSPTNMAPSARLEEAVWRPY
Method: protein-binding microarray
Form: double-stranded DNA, one strand shown
Medium: in vitro
Tested at: not given
Notes: k-mer, scored over probes, only values ≥0.25
Direction: higher = stronger binding
Strand	E-score
CACACAA	0.29
GTAACCA	0.302
GTGGTGA	0.301
CCCACAC	0.337
CATTACC	0.294
CACAAAA	0.327
CCACAAC	0.342
AGTTGTG	0.255
ACCACCA	0.375
CGGTTAG	0.3
CCGCAGC	0.285
AGTGGTA	0.279
CCACACG	0.26

Series 5
Target: ABI1, truncated, D143A, DHFR fusion (Arabidopsis thaliana)
Method: DHFR PCA, deep sequencing
Medium: yeast
Notes: methotrexate growth selection, single substitutions
With: (+)-ABA 0 µM
Reference: wild-type fitted maximum
Direction: higher = stronger binding
Parent: PYL1, truncated, DHFR fusion (Arabidopsis thaliana); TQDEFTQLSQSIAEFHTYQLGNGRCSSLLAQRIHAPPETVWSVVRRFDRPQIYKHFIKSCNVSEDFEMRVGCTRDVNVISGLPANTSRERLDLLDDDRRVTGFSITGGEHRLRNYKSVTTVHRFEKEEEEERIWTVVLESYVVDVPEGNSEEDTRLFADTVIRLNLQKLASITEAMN; partner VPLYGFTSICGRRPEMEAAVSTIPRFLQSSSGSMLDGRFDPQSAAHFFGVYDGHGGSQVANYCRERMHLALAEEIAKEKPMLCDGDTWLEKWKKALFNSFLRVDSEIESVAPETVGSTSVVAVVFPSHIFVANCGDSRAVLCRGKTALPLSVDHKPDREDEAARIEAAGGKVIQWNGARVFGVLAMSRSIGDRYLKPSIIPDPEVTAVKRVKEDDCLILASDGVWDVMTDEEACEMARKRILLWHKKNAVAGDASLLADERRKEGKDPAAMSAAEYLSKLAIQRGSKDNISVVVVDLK
Variant	relative binding score
R111Q	8.26%
L164I	-1.18%
R123F	-12.4%
L29P	2%
S11C	25.4%
R90L	1.16%
E38G	0.537%
R32H	12.8%
A158I	30.8%
R98D	-7.46%
R45A	15%
L164W	13.4%
T39I	49.6%

Series 6
Target: Histone acetyltransferase KAT6A, winged helix 2, GST fusion (KAT6A, Homo sapiens, UniProt Q92794, residues 85-181)
Method: protein binding microarray
Form: double-stranded DNA, one strand shown
Medium: in vitro
Tested at: not given
Notes: 8-mer, flanks averaged, mean of 2 arrays, mostly near background
Reference: not given
Direction: higher = stronger binding
Construct (chain): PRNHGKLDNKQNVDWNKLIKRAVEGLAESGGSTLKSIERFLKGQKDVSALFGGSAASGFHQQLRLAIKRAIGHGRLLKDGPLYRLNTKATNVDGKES
Strand	E-score
AGAATCGA	-0.0263
ACCTACGC	-0.0395
AGTCAGCG	-0.272
AGAAGCAT	0.201
ACAATGGG	-0.143
CCAGCTAC	-0.086
GTGGCTAA	0.106
TGGTGACA	-0.0789
CGCGAGCG	0.137
ACGAATTG	-0.0433
CAAACGAG	0.066
AATGATGA	0.0245
GCCAGCCA	0.0443
GTATATAC	-0.18
CCGATGTA	-0.186
TAACTACA	0.0247
AAAGTCGC	0.218
ACAGACCC	-0.00665
AGGCATTA	-0.0769
GACTGATA	-0.184
CGACGGAC	0.0942
AACGTCAG	-0.199

A few entries again (series 5):
Variant	relative binding score
L29P	2%
A158I	30.8%
R98D	-7.46%
E38G	0.537%
R32H	12.8%
R123F	-12.4%
L164W	13.4%
R90L	1.16%
L164I	-1.18%
R111Q	8.26%
R45A	15%
T39I	49.6%
S11C	25.4%
